# Results gathered from unrelated publications.
# “And” joins repeats or separate records; there may be more than shown. Numbers after ± are the reported error.
Structure (SMILES),target or system,test,system,setting,how to read,endpoint,result
CC[C@H](C)[C@H](NC(=O)[C@H](Cc1ccccc1)NC(=O)[C@H](CCC(=O)O)NC(=O)[C@H](CCCNC(=N)N)NC(=O)[C@H](C)NC(=O)[C@H](C)NC(=O)[C@H](CCC(N)=O)NC(=O)[C@H](CCC(=O)O)NC(=O)[C@H](CCC(=O)O)NC(=O)[C@H](CC(C)C)NC(=O)[C@H](Cc1ccc(O)cc1)NC(=O)[C@H](CO)NC(=O)[C@H](CO)NC(=O)[C@@H](NC(=O)[C@H](CC(=O)O)NC(=O)[C@H](CO)NC(=O)[C@@H](NC(=O)[C@H](Cc1ccccc1)NC(=O)[C@@H](NC(=O)CNC(=O)[C@H](CCC(=O)O)NC(=O)[C@H](C)NC(=O)CCc1cnc[nH]1)[C@@H](C)O)[C@@H](C)O)C(C)C)C(=O)N[C@@H](C)C(=O)N[C@@H](Cc1c[nH]c2ccccc12)C(=O)N[C@@H](CC(C)C)C(=O)N[C@H](C(=O)N[C@@H](CCCNC(=N)N)C(=O)NCC(=O)N[C@@H](CCCNC(=N)N)C(=O)N[C@@H](CCCCNC(=O)COCCOCCNC(=O)COCCOCCNC(=O)CC[C@H](NC(=O)CCCCCCCCCCCCCCCCC(=O)O)C(=O)O)C(=O)NCC(=O)NCC(=O)N[C@@H](CO)C(=O)N[C@@H](CCCCNC(=O)[C@H](CCCCNc1c(NCCCCCN(O)C(=O)CCC(=O)NCCCCCN(O)C(=O)CCC(=O)NCCCCCN(O)C(C)=O)c(=O)c1=O)Nc1c(NCCCCCN(O)C(=O)CCC(=O)NCCCCCN(O)C(=O)CCC(=O)NCCCCCN(O)C(C)=O)c(=O)c1=O)C(=O)O)C(C)C [zirconium-89 labelled],,ex vivo gamma counting,"Sprague-Dawley rat, male, brain","intravenous, 1 nmol, 24 h",,tissue uptake,0.014 %ID/g and 0.017 %ID/g and 0.018 %ID/g
CC(C)[C@H](C(=O)O[C@H](C#N)c1cccc(Oc2ccccc2)c1)c1ccc(Cl)cc1,,measured: CYP3A4,"human, age 5 years",,,enzyme contribution to clearance,2.07%
C=CCNc1c(O)cc2c(O)c1C[C@@H](C)C[C@H](OC)[C@H](O)[C@@H](C)/C=C(\C)[C@H](OC(N)=O)[C@@H](OC)/C=C\C=C(/C)C(=O)N2,,,"unresectable or metastatic STS, GIST, other","intravenous, 300 mg/m^2",,patients with arthralgia TEAE,33%
COc1cc2c(Oc3ccc4[nH]c(C)cc4c3F)ccnc2cc1OCC1(N)CC1,,,paediatric recurrent refractory sarcoma,"concentration not given, whole group",,grade 1 or 2 Triglyceride elevation,20.6%
C[C@]1(O)C[C@@](N)(c2ccc(-c3nc4n(c3-c3ccccc3)COc3ccncc3-4)cc2)C1,,,"human, advanced or metastatic solid tumours","24 mg intermittent, phase I dose escalation",,patients with grade ≥3 TEAE,75%
COc1ccc(-c2c(-c3ccc(C#N)c(F)c3)nc(N3CCC(N)CC3)n(C)c2=O)cc1F,,measured: Cystitis,human patients,"oral, dose not given, dose escalation, NG",,serious adverse event incidence,2%
COc1ccc(Nc2nc(Nc3ccc(OC)cc3OC)nc(N3CCOCC3)n2)c(OC)c1,Vero-E6,CellTiter-Glo ATP,,"concentration not given, 72 h, retest 8-point duplicates","baseline: DMSO 0%, hyamine -100%, more negative, more toxic",cytotoxicity efficacy,-17.1%
O=S(=O)(Nc1ccccc1)c1ccc(NC(=S)Nc2ccccc2)cc1,,measured: CK,"male mouse, blood","oral, 20 mg/kg daily, 14 days",,serum enzyme activity,921 U/L
CC(C)Nc1ccnc(Nc2cccc(-c3cccnc3)c2)n1,,measured: Phosphorus,"mouse, blood","intraperitoneal, 10 mg/kg",,blood chemistry,11.4 mg/dL
CC(=O)c1c(C)c2cnc(Nc3ccc(C4CCN(CCS(C)(=O)=O)CC4)cn3)nc2n(C2CCCC2)c1=O,,,"human, plasma","oral, 25 mg once daily, day 1, single dose",,AUC(0-inf),0.403 µg·h/mL
CN(C(=O)n1cnc(-c2ccc[n+]([O-])c2)c1)C1CCCCC1,,,"Wistar rat, pons","oral, 10 mg/kg/day, 72 h, repeated 5 days",,concentration,14.3 ± 0.5 ng/g
C=CC(=O)N1CC[C@H](n2nc(C#Cc3cc(OC)cc(OC)c3)c3c(N)ncnc32)C1,,,human patients,"oral, dose not given, QD regimen, adverse drug reaction, added: sevelamer hydrochloride",,"ALT increased, any grade",18.2%
COc1ccc2c(Sc3ccc(Cl)cc3)c(C(=O)NCCCN3CCCCC3)[nH]c2c1,Vero-E6,CellTiter-Glo ATP,,"72 h, retest 8-point duplicates","baseline: DMSO 0%, hyamine -100%, more negative, more toxic",maximum response,-1.68%
CC(C)[C@@H]1NC(=O)CNC(=O)[C@H](CC(N)=O)NC(=O)[C@H](CCCNC(=N)N)NC(=O)[C@H](Cc2ccc(O)cc2)NC(=O)[C@H](C(C)C)NC(=O)[C@@H](NC(=O)[C@@H](NC(=O)[C@H](CC(N)=O)NC(=O)[C@H](Cc2c[nH]c3ccccc23)NC(=O)[C@H](C)NC(=O)[C@H](Cc2ccccc2)NC(=O)CN)C(C)C)CSSC[C@@H](C(=O)N[C@@H](Cc2cnc[nH]2)C(=O)N[C@@H](CCCNC(=N)N)C(=O)N[C@@H](CCCNC(=N)N)C(=O)N[C@@H](C)C(=O)N[C@@H](CC(N)=O)C(N)=O)NC(=O)[C@H](C(C)C)NC(=O)[C@H](CCCNC(=N)N)NC1=O,,,"ICR mouse, blood","intramammary, 5 mg/kg, day 5, 3 d dosing",,glucose,1.59 ± 0.1 mmol/L
C[C@@H](NC(=O)N1C(=O)[C@H](Cc2ccnc(N)c2)[C@H]1C(=O)O)C1CCCCC1,,,healthy adult Chinese volunteers,"continuous intravenous infusion, 0.6 mg/kg/h, 5-day infusion, CTCAE 5.0 grading",,incidence of injection site erythema swelling,0%
C=CC(=O)Nc1cc(Nc2nccc(Nc3cc(Cl)c(F)cc3C(C)(C)O)n2)c(OC)cc1N1CC[C@@H](N(C)C)C1,,,human,"oral, dose not given",,weight decreased TEAE,14.7%
C[C@H]1C[C@@H](N2C(=N)N[C@](C)(c3cccc(NC(=O)c4cccc(C#N)c4)c3Cl)CC2=O)CCO1,,,Han Wistar rat male,"oral, 1000 mg/kg, 7 days",,free AUC(0-inf),436 µg·h/mL
C[C@]1(CO)Cc2ncn(-c3ccc(C#N)c(Cl)c3)c2C(=O)O1,,,human,"0.7 to 80 mg, European single ascending dose",,drug-related AE incidence,8.3%
O=C1Nc2cc3[nH]nc(-c4ccncc4)c3cc2CN1Cc1ccccc1,,CTCAE v4.03,advanced solid tumour patients,"intravenous, 9.6 mg/kg, schedules 1/2",,patients with headache,0%
CN1CC[C@@H](c2c(O)cc(O)c3c(=O)cc(-c4ccc(C(F)(F)F)cc4Cl)oc23)[C@@H]1CO,,measured: Diarrhea,AML,"oral, 100 mg, intermittent dosing",,patients with adverse event,33.3%
O=C(Nc1ccccc1)C1CCN(C(=O)Oc2cccnc2)CC1,,adverse event reporting,healthy women,"oral, 100 mg, 9 days",,subjects with nervous system disorders,92.3%
CC(C)C(=O)OC[C@H]1O[C@@H](n2ccc(NO)nc2=O)[C@H](O)[C@@H]1O,,,rat maternal blood dialysate,"5 ng/mL, 6 h, room temperature, low concentration, added: NHC 25 ng/mL",,bench-top stability,101 ± 2.07%
CCC[C@@](N)(CO)CCc1ccc(OCCCCCC(C)C)cc1,,,"dog, male hounds, plasma","oral capsule, 10 mg/kg, geometric mean",,Cmax,202 nM
Cn1cncc1-c1c(F)cncc1NC(=O)c1c(N)nn2cc(F)cnc12,,,human patients,"oral, 80 mg once daily",,grade ≥3 hyperkalaemia incidence,0%
NC(=O)[C@H]1CCN(c2ncnc(N)c2F)C[C@@H]1N1CCC[C@@H](Nc2cc(Cl)cc(C(F)(F)F)c2)C1=O,,,B-cell malignancy patients,"oral, 164 mg twice daily, dose",,grade ≥3 thrombocytopenia,0%
CO[C@H]1C[C@@H]2CC[C@@H](C)[C@@](O)(O2)C(=O)C(=O)N2CCCC[C@H]2C(=O)O[C@H]([C@H](C)C[C@@H]2CC[C@@H](OC(=O)NCCOCCOCCOCCOCCOCCOCCOCCOCCC(=O)N3CCc4cc(Cn5nc(-c6ccc7oc(N)nc7c6)c6c(N)ncnc65)ccc4C3)[C@H](OC)C2)C[C@@H](O)[C@H](C)/C=C(\C)[C@@H](O)[C@@H](OC)C(=O)[C@H](C)C[C@H](C)/C=C/C=C/C=C/1C,,"phase 1 dose escalation, measured: rash",advanced solid tumour patients,"intravenous, 10 mg weekly, grade ≥3",,TRAE incidence,0%
CC(C)C[C@H](NC(=O)[C@H](CCCCN)NC(=O)OCC1c2ccccc2-c2ccccc21)C(=O)N[C@H](C(=O)N[C@@H](Cc1ccccc1)C(=O)N[C@@H](Cc1ccccc1)C(=O)N[C@@H](CCCCN)C(=O)NCC(=O)N[C@@H](Cc1ccccc1)C(=O)N[C@@H](C)C(=O)N[C@@H](Cc1c[nH]c2ccccc12)C(=O)N[C@@H](CC(N)=O)C(=O)N[C@H](C(=O)N[C@H]1CSSC[C@@H](C(=O)N[C@@H](Cc2c[nH]cn2)C(=O)N[C@@H](CCCNC(=N)N)C(=O)N[C@@H](CCCNC(=N)N)C(=O)N[C@@H](C)C(=O)N[C@@H](CC(N)=O)C(N)=O)NC(=O)[C@H](C(C)C)NC(=O)[C@H](CCCNC(=N)N)NC(=O)[C@H](C(C)C)NC(=O)CNC(=O)[C@H](CC(N)=O)NC(=O)[C@H](CCCNC(=N)N)NC(=O)[C@H](Cc2ccc(O)cc2)NC(=O)[C@H](C(C)C)NC1=O)C(C)C)C(C)C,,HPLC,mouse kidney homogenate,"2560 µM, 2.00 h, 37 °C, 50 mg/mL tissue",,remaining peptide,86% and 90.5%
COc1ccnc(C(=O)N[C@H]2COC(=O)[C@H](Cc3ccccc3)[C@@H](OC(=O)C(C)C)[C@H](C)OC2=O)c1OCOC(=O)C(C)C,,,"field soil, silty clay loam","normalised, northern France",,DT50,6.69 days
CCCCCCCCCCCCCCCC(=O)N[C@@H](CCC(=O)NCCCC[C@H](NC(=O)[C@H](CC(=O)O)NC(=O)[C@H](CO)NC(=O)[C@@H](NC(=O)[C@H](Cc1ccccc1)NC(=O)[C@@H](NC(=O)CNC(=O)[C@H](CCC(N)=O)NC(=O)[C@H](CO)NC(=O)[C@@H](N)Cc1c[nH]cn1)[C@@H](C)O)[C@@H](C)O)C(=O)N[C@@H](CO)C(=O)N[C@@H](CCC(=O)O)C(=O)N[C@@H](Cc1ccc(O)cc1)C(=O)N[C@@H](CC(C)C)C(=O)N[C@@H](CC(=O)O)C(=O)N[C@@H](CO)C(=O)N[C@@H](CCC(=O)O)C(=O)N[C@@H](CCCNC(=N)N)C(=O)N[C@@H](C)C(=O)N[C@@H](CCCNC(=N)N)C(=O)N[C@@H](CC(=O)O)C(=O)N[C@@H](Cc1ccccc1)C(=O)N[C@H](C(=O)N[C@@H](C)C(=O)N[C@@H](Cc1c[nH]c2ccccc12)C(=O)N[C@@H](CC(C)C)C(=O)N[C@@H](CCC(=O)O)C(=O)N[C@@H](C)C(=O)NCC(=O)NCC(=O)O)C(C)C)C(=O)O,,,"human, CrCl ≥20 to <30 mL/min","sc, 100 µg single dose",,injection site erythema,0%
CC(C)n1c(C2CCNCC2)nc2c([N+](=O)[O-])c(Br)c(Br)cc21,,measured: Vomiting,AML patients,125 mg,,adverse events causing interruption,2%
C[C@@H]1COCCN1c1cc(C2([S@](C)(=N)=O)CC2)nc(-c2cc[nH]c3nccc2-3)n1,,,"patients, advanced solid tumours","oral, 20 mg twice daily, 10 days, added: carboplatin",,discontinuation due to adverse event,2 % patients

# For quick reference, copied from above:
Structure (SMILES),target or system,test,system,setting,how to read,endpoint,result
C[C@H]1C[C@@H](N2C(=N)N[C@](C)(c3cccc(NC(=O)c4cccc(C#N)c4)c3Cl)CC2=O)CCO1,,,Han Wistar rat male,"oral, 1000 mg/kg, 7 days",,free AUC(0-inf),436 µg·h/mL
C[C@]1(CO)Cc2ncn(-c3ccc(C#N)c(Cl)c3)c2C(=O)O1,,,human,"0.7 to 80 mg, European single ascending dose",,drug-related AE incidence,8.3%
